Measurements collected from several papers.
Each numbered part is a random draw from the data of one study; scales do not carry over between parts. Positions count from the first letter of the parent shown.

Sample 1 — method: universal PBM; form: double-stranded DNA, one strand shown; medium: in vitro; concentration: 600 nM; direction: higher = stronger binding
Target: Sal-like protein 4, full length isoform A (SALL4, Homo sapiens, UniProt Q9UJQ4, residues 1-1053)
Sequence of UniProt Q9UJQ4 (whole entry, looked up): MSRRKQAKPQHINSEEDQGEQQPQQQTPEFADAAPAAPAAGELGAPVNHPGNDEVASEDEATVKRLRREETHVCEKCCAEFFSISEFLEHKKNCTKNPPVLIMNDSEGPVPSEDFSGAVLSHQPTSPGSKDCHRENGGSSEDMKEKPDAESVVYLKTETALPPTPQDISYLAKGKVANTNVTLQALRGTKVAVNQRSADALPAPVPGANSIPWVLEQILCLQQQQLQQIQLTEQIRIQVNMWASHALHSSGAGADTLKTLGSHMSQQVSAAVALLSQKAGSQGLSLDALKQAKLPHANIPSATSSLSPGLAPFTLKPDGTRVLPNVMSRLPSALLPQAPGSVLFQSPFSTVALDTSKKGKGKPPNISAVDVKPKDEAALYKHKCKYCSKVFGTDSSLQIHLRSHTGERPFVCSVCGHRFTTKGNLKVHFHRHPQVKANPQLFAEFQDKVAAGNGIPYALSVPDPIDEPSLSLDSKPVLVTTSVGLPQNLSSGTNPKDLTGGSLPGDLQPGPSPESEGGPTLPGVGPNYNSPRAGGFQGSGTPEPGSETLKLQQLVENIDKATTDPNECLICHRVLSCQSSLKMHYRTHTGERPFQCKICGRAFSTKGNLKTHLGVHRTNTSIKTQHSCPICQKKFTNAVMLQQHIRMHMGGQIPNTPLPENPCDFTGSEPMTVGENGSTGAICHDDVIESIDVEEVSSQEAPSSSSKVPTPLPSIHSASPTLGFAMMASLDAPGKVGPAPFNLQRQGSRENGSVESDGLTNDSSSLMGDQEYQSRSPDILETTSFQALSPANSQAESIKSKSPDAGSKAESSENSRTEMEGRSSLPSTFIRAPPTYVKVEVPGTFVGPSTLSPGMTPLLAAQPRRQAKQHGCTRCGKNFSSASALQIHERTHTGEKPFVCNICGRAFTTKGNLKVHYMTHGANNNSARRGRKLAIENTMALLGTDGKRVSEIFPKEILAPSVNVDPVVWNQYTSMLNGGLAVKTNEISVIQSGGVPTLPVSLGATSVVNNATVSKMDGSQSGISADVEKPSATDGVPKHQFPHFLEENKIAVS
Setting: 8-mer, flanks averaged, mean of replicates
| Sequence | E-score |
| --- | --- |
| AGCAGCGA | -0.0322 |
| CATTTGAG | 0.176 |
| TGCTTTAA | 0.105 |
| AGCTCACG | -0.189 |
| AGCATCAA | 0.162 |
| AGTCCTAC | -0.084 |

Sample 2 — method: RNA Bind-n-Seq; form: RNA; medium: in vitro; concentration: 200 nM; setting: whole 134-nt RNA, ends assumed; with: 150 mM LiCl; relative to: input library; direction: higher = stronger binding; all molecules: 7-deaza-guanosine replaces G
Target: Fragile X messenger ribonucleoprotein 1, C-terminal low-complexity region (Fmr1, Mus musculus, UniProt P35922)
All sequences stand within: GGGAGUUCUACAGUCCGACGAUC … UGGAAUUCUCGGGUGUCAAGG
| Sequence | log2 enrichment |
| --- | --- |
| CCUGUGCUACACAUCGUAUGUACCGAAUCAAACCCCCAAAUUUUUUUAAACCCCCCCAAAAAAGUAUUAUGUUACGCCGUUCGGAUCUGC | 2.09 |
| AAGUCCUGUGCUACACAUCGUAUGUACCGAAUCGGGUGGGUUUGGGAAAAAAAGGGAAAGUAUUAUGUUACGCCGUUCGGAUCUGCACUU | -1.31 |
| CUCAAGUCCUGUGCUACACAUCGUAUGUACCGAAUCGGCCGGGGCCGGGCCGGGAAAGUAUUAUGUUACGCCGUUCGGAUCUGCACUUCC | -0.29 |
| CCUCAAGUCCUGUGCUACACAUCGUAUGUACCGAAUCGGGAGGGGAGGGAGGAAAGUAUUAUGUUACGCCGUUCGGAUCUGCACUUCCAG | -0.841 |
| ACCAUGCAGGUGGGCAUGUUUGGGAAGUGGGGCAAGGGGGGGAUAGGGAGGGGGGUAACACUUUGGGAACAGGUGGUCCCAGGUCGUUUC | 1.35 |

Sample 3 — target: CCNB2, cyclin fold, Cln2 fusion (human); method: yeast growth competition, sequencing; medium: yeast; setting: weak parent motif; relative to: not given; direction: higher = stronger binding
Starting sequence: RBL1 docking peptide (human); GSAKRRLFGEDPP
| Variant | normalised enrichment score |
| --- | --- |
| E10F | 0.451 |
| P12E | 0.647 |
| E10I | 0.589 |
| L7S | -0.44 |
| S2Q | 0.432 |

Other studies, line by line
| Substance | target | assay | system | conditions | scale | quantity | result |
| --- | --- | --- | --- | --- | --- | --- | --- |
| PhoQ, residues 284 288 289 292 302 303 AGGCYF | PhoP, residues 12 14 15 18 19 LHTVM (Escherichia coli, UniProt P23836) | Sort-seq, refers to: YFP reporter | E. coli | PhoQ-PhoP variant library, with: 10 µM Mg2+ | relative to: high Mg2+ state, higher = stronger signaling | fold induction | 8.45 |

Repeated from above (sample 1):
| Sequence | E-score |
| --- | --- |
| AGTCCTAC | -0.084 |
